Experimental data pooled from the literature.
Parts stem from different laboratories: compare values within a part only. Several values in a cell are separate wells, animals, samples, runs or records. Changes are numbered by the printed parent chain.
Sequence of UniProt P38919 (whole entry, looked up): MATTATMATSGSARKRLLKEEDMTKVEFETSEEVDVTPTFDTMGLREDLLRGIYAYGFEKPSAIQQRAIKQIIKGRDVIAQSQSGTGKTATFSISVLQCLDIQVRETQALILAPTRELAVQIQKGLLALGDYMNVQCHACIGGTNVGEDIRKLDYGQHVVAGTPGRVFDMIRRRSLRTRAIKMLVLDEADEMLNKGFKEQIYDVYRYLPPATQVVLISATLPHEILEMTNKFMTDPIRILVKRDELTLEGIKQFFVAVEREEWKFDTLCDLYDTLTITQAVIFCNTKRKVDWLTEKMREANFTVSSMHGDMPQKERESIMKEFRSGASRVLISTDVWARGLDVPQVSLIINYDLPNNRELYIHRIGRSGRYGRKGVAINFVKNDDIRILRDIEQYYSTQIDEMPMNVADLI

Set 1
Target: inorganic phosphate, free oxyanion
Method: microfluidic competitive inhibition
Medium: in vitro, cell-free expressed
Concentration: not given
Setting: derived from inhibition constants, unchanged parent 615000 nM
Reading: lower = stronger binding
Quantity: phosphate dissociation constant
Starting sequence: PafA, mature enzyme, eGFP fusion (Elizabethkingia meningoseptica, UniProt Q9KJX5); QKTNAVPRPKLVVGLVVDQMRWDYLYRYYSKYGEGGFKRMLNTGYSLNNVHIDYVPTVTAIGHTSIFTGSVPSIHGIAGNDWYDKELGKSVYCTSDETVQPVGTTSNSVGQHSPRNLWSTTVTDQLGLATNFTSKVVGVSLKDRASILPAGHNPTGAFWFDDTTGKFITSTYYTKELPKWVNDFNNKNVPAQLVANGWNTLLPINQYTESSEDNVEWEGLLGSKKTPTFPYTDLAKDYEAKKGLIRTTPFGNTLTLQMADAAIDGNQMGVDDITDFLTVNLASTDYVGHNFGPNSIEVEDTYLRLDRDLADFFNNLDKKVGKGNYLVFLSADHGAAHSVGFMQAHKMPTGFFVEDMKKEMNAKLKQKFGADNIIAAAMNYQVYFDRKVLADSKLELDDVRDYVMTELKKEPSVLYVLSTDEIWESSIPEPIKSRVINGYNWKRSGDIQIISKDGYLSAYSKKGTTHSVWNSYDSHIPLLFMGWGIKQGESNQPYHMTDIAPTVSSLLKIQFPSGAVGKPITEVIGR
D271G: 552 µM
D391V: 634 µM
W441G: 419 µM
E216G: 509 µM
R443G: 669 µM
H75V: 384 µM
K358G: 587 µM
G454A: 495 µM

Set 2
Target: UDP-N-acetylglucosamine--peptide N-acetylglucosaminyltransferase 110 kDa subunit (OGT, Homo sapiens, UniProt O15294)
Observed: binding
Method: phage display NGS
Molecule type: peptide
Setting: panning round 2
Relative to: input library
Quantity: minimum log2 enrichment ratio
Target sequence (O15294 1-1046): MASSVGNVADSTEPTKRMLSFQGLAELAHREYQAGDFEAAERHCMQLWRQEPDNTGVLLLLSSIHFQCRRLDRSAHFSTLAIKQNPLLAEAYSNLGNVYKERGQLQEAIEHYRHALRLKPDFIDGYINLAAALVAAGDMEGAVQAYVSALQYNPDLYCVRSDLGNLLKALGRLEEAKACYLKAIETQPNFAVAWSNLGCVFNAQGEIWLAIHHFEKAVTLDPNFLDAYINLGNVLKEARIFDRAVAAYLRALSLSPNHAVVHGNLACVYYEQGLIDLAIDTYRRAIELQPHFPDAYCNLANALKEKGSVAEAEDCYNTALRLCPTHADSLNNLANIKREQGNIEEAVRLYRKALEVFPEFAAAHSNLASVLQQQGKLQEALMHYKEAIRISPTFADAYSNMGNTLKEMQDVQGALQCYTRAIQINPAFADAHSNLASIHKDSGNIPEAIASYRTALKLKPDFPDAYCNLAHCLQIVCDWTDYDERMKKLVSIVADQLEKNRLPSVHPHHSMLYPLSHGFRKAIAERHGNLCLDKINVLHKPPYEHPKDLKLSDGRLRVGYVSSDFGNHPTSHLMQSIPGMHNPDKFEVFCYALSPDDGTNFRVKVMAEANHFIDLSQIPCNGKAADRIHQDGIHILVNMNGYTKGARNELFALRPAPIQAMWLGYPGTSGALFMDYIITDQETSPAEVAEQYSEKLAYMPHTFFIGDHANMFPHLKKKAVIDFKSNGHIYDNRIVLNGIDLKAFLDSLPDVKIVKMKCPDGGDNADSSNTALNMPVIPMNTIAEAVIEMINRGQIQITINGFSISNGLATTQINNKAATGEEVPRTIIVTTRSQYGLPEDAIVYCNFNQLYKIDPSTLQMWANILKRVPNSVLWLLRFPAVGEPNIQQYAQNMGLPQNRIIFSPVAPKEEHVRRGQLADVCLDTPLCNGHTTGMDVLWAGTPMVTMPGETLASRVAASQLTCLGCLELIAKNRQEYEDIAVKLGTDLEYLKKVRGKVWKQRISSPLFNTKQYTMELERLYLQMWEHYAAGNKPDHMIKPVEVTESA
SYRPMYQIVQPIKQY: 1.83
EWLPMYQIQYVMYAT: 2.73
RDHSWHGHHATLLGT: 2.49
AFSPQYQIFVGQTYM: 2.04
VVESMFMPEYQIVPV: 3.05
HQRMDTSNDWKHHH: 2.53
DLTHEHQIHHHYNRD: 2.34
DEHMIPNHHHHFTIE: 2.54

Set 3
Target: CCNB2, cyclin fold, Cln2 fusion (human)
Method: yeast growth competition, sequencing
Medium: yeast
Setting: weak parent motif
Relative to: not given
Reading: higher = stronger binding
Quantity: normalised enrichment score
Starting sequence: viral docking peptide; KKVKRRLFETREL
KKVKKRLFETREL [R5K]: 0.719
KAVKRRLFETREL [K2A]: 0.642
KKAKRRLFETREL [V3A]: 0.499
KKVKRALFETREL [R6A]: 0.692
KKVKRRLFETREA [L13A]: -0.113
AKVKRRLFETREL [K1A]: 0.781
KKVKRRLAETREL [F8A]: 0.352
KKVKRRLFATREL [E9A]: 0.401

Single results of other studies
COC(=O)[C@@H]1[C@@H](c2ccccc2)[C@]2(c3ccc(OC)cc3)Oc3cc(OC)cc(OC)c3[C@@]1(O)[C@@H]2O — fluorescence polarization change (Eukaryotic initiation factor 4A-III (Homo sapiens, UniProt P38919); RNA clamping, fluorescence polarization; concentration not given, together with: FAM-labelled poly r(AG)8 RNA): -4.2 mP and 0.8 mP and -6.2 mP and -5.6 mP

A few entries again (set 2):
AFSPQYQIFVGQTYM: 2.04
VVESMFMPEYQIVPV: 3.05
HQRMDTSNDWKHHH: 2.53
